Published values from different studies.
Each line is one published result; not all experiments were run side by side. Numbers after ± are the reported error.

Under “plasma protein binding”, `CN1C(=CC2=C(O)C(=CC3=[N+](CCC[N+](C)(C)C)c4ccc(F)cc4C3(C)C)C2=O)C(C)(C)c2ccccc21` is recorded as 4.5% (rapid equilibrium dialysis; plasma).
With `CCOc1ccc2cc(-c3nn(CC4CCNCC4)c4ncnc(N)c34)ccc2n1` the plasma concentration was 0.2 ± 0.1 µM (piglets, crossbred; oral, 10 mg/kg twice daily, 2 h before dose 9, 7 days post infection).
`OB1c2sccc2C=NN1Cc1ccccc1`: plasma stability “stable” (HPLC; human plasma; 400 µM, 10 h, 37 °C).
For `CN1C(=CC2=C(O)C(=CC3=[N+](CCC[N+](C)(C)C)c4ccc(Cl)cc4C3(C)C)C2=O)C(C)(C)c2ccccc21`, “plasma protein binding” read 47.9% (rapid equilibrium dialysis; plasma).
The plasma concentration of `CCOc1ccc2cc(-c3nn(CC4CCN(C)CC4)c4ncnc(N)c34)ccc2n1` is reported as 4.9 µM (piglets, Landrace x Large White, plasma; oral, 10 mg/kg, 2 h after dose 1, 3 dpi).
`CONC(=O)[C@H]1[C@@H](O)[C@@]2(O)c3c(cc(OC)nc3OC)O[C@@]2(c2ccc(C#N)cc2)[C@@H]1c1ccccc1` has a plasma half-life of 9.97 ± 2 h (plasma; oral, 5 mg/kg).
With `CN(C)CCCOc1ccc2cc1Oc1ccc(cc1)CC1c3c(cc(OCCCN(C)C)c4c3Oc3cc5c(cc3O4)CCN(C)C5C2)CCN1C` (stereo not drawn) the plasma concentration was no more than 600 ng/mL (plasma; intraperitoneal, 5 mg/kg, 30 min).
`O=C(CCC(C(=O)[O-])N1CCN(C(CCC(=O)NCC(O)CO)C(=O)[O-])Cc2cccc(n2)CN(C(CCC(=O)NCC(O)CO)C(=O)[O-])CC1)NCC(O)CO.[153Gd+3]` (stereo not drawn): “plasma protein binding” 1.4% (equilibrium dialysis; dog plasma; 0.01-5 µmol/mL, 2 h, 37 °C).
`N#Cc1ccc(-c2cc(=O)c3ccc4[nH]c(C(F)(F)F)nc4c3o2)cc1`: plasma stability “stable”.
With `NC[C@@H](C(=O)Nc1ccc(-c2cn[nH]c2)cc1)c1ccccc1` the plasma concentration was less than 0.8 ng/mL (rabbit New Zealand White, plasma; topical ocular, one drop 0.1%, 8 h; below calibration minimum).
`CN1CCC(Cn2nc(-c3ccc4nc(O)ccc4c3)c3c(N)ncnc32)CC1` has a plasma concentration of 0 µM (piglets, crossbred; oral, 10 mg/kg, 2 h after dose 1, 3 days post infection).
`CN1C(=CC2=C(O)C(=CC3=[N+](CCC[N+](C)(C)C)c4ccc(Br)cc4C3(C)C)C2=O)C(C)(C)c2ccccc21`: “plasma protein binding” 68.3% (rapid equilibrium dialysis; plasma).

Repeated from above:
Under “plasma protein binding”, `CN1C(=CC2=C(O)C(=CC3=[N+](CCC[N+](C)(C)C)c4ccc(F)cc4C3(C)C)C2=O)C(C)(C)c2ccccc21` is recorded as 4.5% (rapid equilibrium dialysis; plasma).
With `NC[C@@H](C(=O)Nc1ccc(-c2cn[nH]c2)cc1)c1ccccc1` the plasma concentration was less than 0.8 ng/mL (rabbit New Zealand White, plasma; topical ocular, one drop 0.1%, 8 h; below calibration minimum).
